Measurements of several laboratories.
Each numbered part is a random draw from the data of one study; scales do not carry over between parts.
Sequence of UniProt P42679 (whole entry, looked up): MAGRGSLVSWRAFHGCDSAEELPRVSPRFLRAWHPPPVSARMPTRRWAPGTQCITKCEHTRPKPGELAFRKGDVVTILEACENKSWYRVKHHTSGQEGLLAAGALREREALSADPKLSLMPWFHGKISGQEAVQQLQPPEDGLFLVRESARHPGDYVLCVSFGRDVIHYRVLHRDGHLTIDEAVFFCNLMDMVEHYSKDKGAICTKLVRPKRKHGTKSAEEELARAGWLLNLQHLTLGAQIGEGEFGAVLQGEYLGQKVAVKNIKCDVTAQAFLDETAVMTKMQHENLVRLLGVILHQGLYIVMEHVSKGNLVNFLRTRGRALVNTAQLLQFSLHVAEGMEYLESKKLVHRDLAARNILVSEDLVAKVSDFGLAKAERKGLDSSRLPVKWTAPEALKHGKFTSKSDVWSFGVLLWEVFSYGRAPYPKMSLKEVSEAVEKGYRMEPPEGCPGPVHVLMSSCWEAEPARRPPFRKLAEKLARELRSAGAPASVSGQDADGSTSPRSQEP
Sequence of UniProt Q9UBF8 (whole entry, looked up): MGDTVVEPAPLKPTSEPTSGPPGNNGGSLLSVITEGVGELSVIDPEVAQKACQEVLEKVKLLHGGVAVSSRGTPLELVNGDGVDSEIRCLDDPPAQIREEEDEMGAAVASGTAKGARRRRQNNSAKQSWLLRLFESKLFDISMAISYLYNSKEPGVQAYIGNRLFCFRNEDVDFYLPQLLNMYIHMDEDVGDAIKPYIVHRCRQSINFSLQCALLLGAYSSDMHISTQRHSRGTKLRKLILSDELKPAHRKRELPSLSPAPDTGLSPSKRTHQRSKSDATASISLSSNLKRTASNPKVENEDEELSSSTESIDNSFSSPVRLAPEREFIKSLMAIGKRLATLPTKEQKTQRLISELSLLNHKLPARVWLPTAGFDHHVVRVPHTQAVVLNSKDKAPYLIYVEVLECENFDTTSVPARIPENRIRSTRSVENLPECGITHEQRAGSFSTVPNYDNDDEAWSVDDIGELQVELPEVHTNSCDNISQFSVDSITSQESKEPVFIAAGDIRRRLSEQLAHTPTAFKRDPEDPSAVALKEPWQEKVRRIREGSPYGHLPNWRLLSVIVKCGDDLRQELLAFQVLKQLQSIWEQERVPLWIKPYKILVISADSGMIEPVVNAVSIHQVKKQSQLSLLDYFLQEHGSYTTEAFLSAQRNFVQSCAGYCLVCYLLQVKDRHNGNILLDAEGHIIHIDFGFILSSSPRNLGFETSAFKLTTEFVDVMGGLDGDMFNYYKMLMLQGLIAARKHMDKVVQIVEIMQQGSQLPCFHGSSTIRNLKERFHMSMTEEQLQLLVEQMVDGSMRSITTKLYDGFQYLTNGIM
Sequence of UniProt O95835 (whole entry, looked up): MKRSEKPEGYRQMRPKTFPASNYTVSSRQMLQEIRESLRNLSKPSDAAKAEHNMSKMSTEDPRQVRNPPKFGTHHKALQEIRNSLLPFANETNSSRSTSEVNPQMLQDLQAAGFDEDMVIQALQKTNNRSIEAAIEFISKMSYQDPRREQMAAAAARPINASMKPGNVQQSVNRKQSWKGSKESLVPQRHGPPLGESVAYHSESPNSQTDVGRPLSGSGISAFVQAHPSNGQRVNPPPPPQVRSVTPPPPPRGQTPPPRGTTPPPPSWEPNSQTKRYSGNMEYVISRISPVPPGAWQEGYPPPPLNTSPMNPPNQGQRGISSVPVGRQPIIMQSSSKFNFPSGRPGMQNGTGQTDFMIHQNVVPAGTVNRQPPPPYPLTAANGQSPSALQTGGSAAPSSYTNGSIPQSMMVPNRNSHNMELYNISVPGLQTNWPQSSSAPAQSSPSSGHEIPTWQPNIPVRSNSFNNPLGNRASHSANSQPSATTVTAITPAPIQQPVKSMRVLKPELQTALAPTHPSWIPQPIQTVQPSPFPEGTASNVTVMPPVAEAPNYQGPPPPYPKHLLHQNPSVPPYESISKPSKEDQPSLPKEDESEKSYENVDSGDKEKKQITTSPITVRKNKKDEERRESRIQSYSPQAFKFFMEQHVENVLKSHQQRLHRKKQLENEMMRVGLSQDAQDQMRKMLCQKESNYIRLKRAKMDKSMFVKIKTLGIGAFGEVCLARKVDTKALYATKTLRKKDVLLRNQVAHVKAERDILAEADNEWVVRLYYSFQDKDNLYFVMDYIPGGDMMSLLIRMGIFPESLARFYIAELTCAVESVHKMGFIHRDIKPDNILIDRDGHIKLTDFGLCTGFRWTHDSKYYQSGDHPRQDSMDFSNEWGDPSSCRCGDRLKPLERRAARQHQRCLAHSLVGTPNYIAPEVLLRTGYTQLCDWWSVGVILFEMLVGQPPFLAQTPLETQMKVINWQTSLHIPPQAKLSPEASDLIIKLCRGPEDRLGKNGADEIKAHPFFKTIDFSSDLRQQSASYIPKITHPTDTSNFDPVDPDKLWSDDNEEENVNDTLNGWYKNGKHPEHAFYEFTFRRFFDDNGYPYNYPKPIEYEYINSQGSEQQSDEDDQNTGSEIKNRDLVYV
Sequence of UniProt O43353 (whole entry, looked up): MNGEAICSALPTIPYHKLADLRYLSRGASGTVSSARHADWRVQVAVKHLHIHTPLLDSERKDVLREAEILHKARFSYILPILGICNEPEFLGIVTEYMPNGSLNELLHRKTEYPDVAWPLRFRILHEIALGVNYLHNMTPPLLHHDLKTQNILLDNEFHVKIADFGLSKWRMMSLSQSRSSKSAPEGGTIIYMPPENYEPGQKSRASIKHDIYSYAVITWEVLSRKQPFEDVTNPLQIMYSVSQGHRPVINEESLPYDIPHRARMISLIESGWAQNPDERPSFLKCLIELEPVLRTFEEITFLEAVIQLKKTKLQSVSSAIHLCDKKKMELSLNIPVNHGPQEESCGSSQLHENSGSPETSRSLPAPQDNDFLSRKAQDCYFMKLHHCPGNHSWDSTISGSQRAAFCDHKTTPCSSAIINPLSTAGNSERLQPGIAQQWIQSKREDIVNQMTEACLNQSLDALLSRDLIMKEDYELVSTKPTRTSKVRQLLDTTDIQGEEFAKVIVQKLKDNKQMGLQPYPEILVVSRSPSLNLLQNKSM

Block 1
SMILES: COc1cccc(CNC(=O)c2nc3scc(COCc4ccc(C(=O)O)cc4)c3c(=O)[nH]2)c1
Observed: cell-free assay
Technique: competition with immobilised ligand
Tested at: 1 µM
For LATS1 (Homo sapiens, UniProt O95835): remaining binding read 100%.
PI4KB (Homo sapiens, UniProt Q9UBF8) — remaining binding: 59.9%.
The remaining binding was 97.8% (MATK (Homo sapiens, UniProt P42679)).
RIPK2 (Homo sapiens, UniProt O43353) — remaining binding: 100%.
It gave 77.9% for remaining binding (FLT3 (Homo sapiens, UniProt P36888, R834Q)).

Block 2
Target: RING finger protein unkempt homolog, zinc fingers 1-6, GST-SBP tag (UNK, Homo sapiens, UniProt Q9C0B0, residues 30-357)
Sequence of UniProt Q9C0B0 (30-357, looked up): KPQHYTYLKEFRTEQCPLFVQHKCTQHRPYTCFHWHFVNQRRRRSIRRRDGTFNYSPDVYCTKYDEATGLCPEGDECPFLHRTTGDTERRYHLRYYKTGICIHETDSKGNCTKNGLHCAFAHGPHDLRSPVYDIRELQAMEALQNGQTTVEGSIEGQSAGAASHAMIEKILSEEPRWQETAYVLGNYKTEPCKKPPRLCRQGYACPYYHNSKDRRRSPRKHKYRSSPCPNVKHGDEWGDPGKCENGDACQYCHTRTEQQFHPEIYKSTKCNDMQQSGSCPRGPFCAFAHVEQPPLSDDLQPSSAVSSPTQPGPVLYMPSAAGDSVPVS
Technique: RNA Bind-n-Seq
Molecule type: RNA
Sample: in vitro
Tested at: not given
Setting: RNA with constant flanks, human and mouse sites, ends assumed
Baseline: input RNA pool
Reading: higher = stronger binding
Constant ends, left off below: GGGAGUUCUACAGUCCGACGAUC … CAACAGAGGAUUGAGCAUCA
`GGCUCCCAUUGUCUCCGCAGAUGCCUCCUGGUCCUGCUACGGUGCUGGGGUUGUUCAGUUUUAGGGGACACGCUCCUAUUCUUUUCUUCGAGACGUCCCGCGGCCGAGAACGGGGUUCUA` gave a bound/input enrichment of 0.119 ratio.
`UAUACCUCCAGAGAGCAGACUGUCUACUACGCCAAAGCAUUCUCGAGAGAUUUGCCCAGAGCUGUAGAAAUUCUUGCUGACAUAAUUCAGAACAGCACACUGGGAGAAGCAGAGAUUGAG` has a bound/input enrichment of 0.219 ratio.
For `AAGAAUCCUGGUGUGGGCAAUGGAGAUGAUGAAGCAGCUGAAUUGAUGCAGCAGGUCAAAGUACUGAAGCUUACUGUUGAAGACUUGGAGAAGGAGAGAGACUUCUACUUCGGAAAGCUA`, the bound/input enrichment was 0.585 ratio.
The bound/input enrichment of `UUUAGAGGAAAUGCUGUUACUUGGAAUUAAUUUUCCAGUUAUACAGUCUUCUAUAACUUACUAAUAAUAUUCUAUAUGUACUUUAUGUAAUUUCCCUAAAAAGAAUGAACUACCACUACA` is reported as 0.32 ratio.
`CAAGUAUUUUAAUUUAAGUUCAGUGAACUUUUUUGUAGCUGGGUUAAAUCUUUUUAUUUUUAGUAUGGCCUUAUGGCAAAGAACACUGUAUUAUUUUAAUAAUCACACGAUUGUGACGGA` has a bound/input enrichment of 6.6 ratio.
The bound/input enrichment of `ACCAAUGAAAAUCAGAAGACUAAUACUGUGGCUAAACAGGAGCAGCGACCUAUAAAAAAGAAUAGUCUCUAUUCAACAGAUUUUAUAGUGUUUAAUGACAAUGAUGGUUCAGAUGAUGAG` is reported as 0.414 ratio.
`GCAGUAGCCAGAGGAUGUGCAUUACAGUGUGCAAUACUUUCCCCGGCAUUUAAAGUUAGAGAAUUUUCCGUCACAGAUGCAGUUCCUUUUCCAAUAUCUCUGAUCUGGAACCAUGAUUCA` has a bound/input enrichment of 0.362 ratio.
The bound/input enrichment of `GGGCCUGUGUUUGGAAACAUGGACAAAUUUGUGGGGCUGGGAGUAUUUGUAGACACCUACCCCAAUGAGGAGAAGCAGCAAGAGCGGGUAUUCCCCUACAUCUCAGCCAUGGUGAACAAC` is reported as 0.176 ratio.

Block 3
Target: Testis-specific serine/threonine-protein kinase 1 (TSSK1B, Homo sapiens, UniProt Q9BXA7)
Observed: enzyme activity
Action: inhibitor
Tested at: 0.5 µM
Baseline: control
Residues (Q9BXA7 1-367): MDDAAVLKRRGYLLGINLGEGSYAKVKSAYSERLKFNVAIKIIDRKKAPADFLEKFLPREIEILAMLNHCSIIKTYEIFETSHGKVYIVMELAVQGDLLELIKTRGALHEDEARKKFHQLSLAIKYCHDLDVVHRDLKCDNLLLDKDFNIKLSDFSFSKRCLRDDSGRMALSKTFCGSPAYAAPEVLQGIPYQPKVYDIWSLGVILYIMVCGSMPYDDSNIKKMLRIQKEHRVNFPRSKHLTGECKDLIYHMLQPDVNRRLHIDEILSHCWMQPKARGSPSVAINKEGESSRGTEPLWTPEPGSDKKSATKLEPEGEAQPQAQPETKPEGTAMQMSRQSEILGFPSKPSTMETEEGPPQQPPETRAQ
`O=C1NC(=O)C(c2cn(CCCO)c3ncccc23)=C1c1cnccn1` gave a remaining activity of 94.9%.
With `CCOC(=O)c1c(C)[nH]c(/C=C2\C(=O)Nc3ccccc32)c1C` the remaining activity was 91.2%.
`CC(C)[C@H](CO)Nc1nc(Nc2cc(N)cc(Cl)c2)c2ncn(C(C)C)c2n1` has a remaining activity of 91.3%.
With `Cn1sc(=O)n(Cc2ccccc2)c1=O` the remaining activity was 94.4%.
The remaining activity of `Cc1ccc(Nc2nccc(N(C)c3ccc4c(C)n(C)nc4c3)n2)cc1S(N)(=O)=O` is reported as 99%.
With `COc1cc2nccc(Oc3ccc(NC(=S)NC(=O)c4ccccc4C)cc3)c2cc1OC` the remaining activity was 83.6%.
With `Cn1c2ccccc2c2c3c(c4c5ccccc5n(CCC#N)c4c21)CNC3=O` the remaining activity was 10.1%.
With `O=c1c2ccccc2[nH]c(=S)n1CCN1CCC(=C(c2ccc(F)cc2)c2ccc(F)cc2)CC1` the remaining activity was 106%.
For `NCCNc1ncc(C(N)=O)c(Nc2cccc(C(F)(F)F)c2)n1`, the remaining activity was 32.9%.
`COc1ccc(OC)c2c(=S)c3ccccc3[nH]c12` has a remaining activity of 114%.
With `COc1ccc(CNC(=O)Nc2ncc([N+](=O)[O-])s2)cc1` the remaining activity was 106%.
For `Nc1ncnc2n[nH]c(Nc3ccc(F)cc3)c12`, the remaining activity was 96.4%.
With `O=S(=O)(c1cccc2cnccc12)N1CCCNCC1` the remaining activity was 93.5%.
With `O=C(Nc1cccc(Nc2cc(Nc3cccc(C(F)(F)F)c3)ncn2)c1)C1CC1` the remaining activity was 104%.
For `COc1cc2ncnc(Nc3ccc(Oc4ccccc4)cc3)c2cc1OC`, the remaining activity was 104%.

Block 4
Target: Interferon regulatory factor 7, full length, phosphomimetic (IRF7, Homo sapiens, UniProt Q92985, residues 1-503, S471D/S472D/S475D/S476D/S477D/S483D/S484D/S487D)
Sequence of UniProt Q92985 (whole entry, unmodified, looked up): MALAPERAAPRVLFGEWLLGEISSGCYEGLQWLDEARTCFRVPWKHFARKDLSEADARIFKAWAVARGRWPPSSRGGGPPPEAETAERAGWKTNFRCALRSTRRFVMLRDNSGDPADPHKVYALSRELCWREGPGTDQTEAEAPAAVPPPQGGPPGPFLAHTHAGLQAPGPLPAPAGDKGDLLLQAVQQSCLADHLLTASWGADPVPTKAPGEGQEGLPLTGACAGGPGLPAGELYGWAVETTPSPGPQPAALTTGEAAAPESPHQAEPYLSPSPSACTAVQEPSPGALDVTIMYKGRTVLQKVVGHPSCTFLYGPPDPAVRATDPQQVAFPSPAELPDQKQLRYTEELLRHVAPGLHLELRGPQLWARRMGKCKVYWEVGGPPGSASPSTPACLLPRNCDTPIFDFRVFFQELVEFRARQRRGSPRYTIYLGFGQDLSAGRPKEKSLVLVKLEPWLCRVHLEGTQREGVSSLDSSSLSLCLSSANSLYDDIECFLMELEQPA
Technique: protein-binding microarray
Molecule type: double-stranded DNA, one strand shown
Sample: in vitro
Tested at: 2200 nM top
Setting: 60-bp whole probe
Together with: salmon DNA 0.4 mg/ml
Baseline: random background probes
Reading: higher = stronger binding
Constant ends, left off below: GCCTAGCAC … GTCTTGATTCGCTTGACGCTGCTG
Under “fitted relative affinity”, `TGGTGCTTAGTATTTTTTTCCGTGCTA` is recorded as 0.48 z-score.
For `GAGGGTATCGGGACTGGGGACGTGCTA`, “fitted relative affinity” read -0.634 z-score.
`GACGGTTTCGACTCTCGGGACGTGCTA` — result for “fitted relative affinity”: 6.55 z-score.
`TAGGGACTCGGGTCTCCCTTGGTGCTA` — result for “fitted relative affinity”: -0.514 z-score.
`GATGGTATCGGTTTCGGGACGTGCTAG` — result for “fitted relative affinity”: 4.03 z-score.
`GACGGTTTCGGACTGGGGGCGTGCTAG`: “fitted relative affinity” 4.03 z-score.
`GACGGTATCGGGTTCGGGACGTGCTAG` — result for “fitted relative affinity”: 0.753 z-score.
`TTAGATTCCGGGTTTCGATTAGTGCTA`: “fitted relative affinity” 4.13 z-score.

Excerpt of the above (block 2):
`GCAGUAGCCAGAGGAUGUGCAUUACAGUGUGCAAUACUUUCCCCGGCAUUUAAAGUUAGAGAAUUUUCCGUCACAGAUGCAGUUCCUUUUCCAAUAUCUCUGAUCUGGAACCAUGAUUCA` has a bound/input enrichment of 0.362 ratio.
`UAUACCUCCAGAGAGCAGACUGUCUACUACGCCAAAGCAUUCUCGAGAGAUUUGCCCAGAGCUGUAGAAAUUCUUGCUGACAUAAUUCAGAACAGCACACUGGGAGAAGCAGAGAUUGAG` has a bound/input enrichment of 0.219 ratio.
The bound/input enrichment of `ACCAAUGAAAAUCAGAAGACUAAUACUGUGGCUAAACAGGAGCAGCGACCUAUAAAAAAGAAUAGUCUCUAUUCAACAGAUUUUAUAGUGUUUAAUGACAAUGAUGGUUCAGAUGAUGAG` is reported as 0.414 ratio.
